Experimental data collected from several papers.
Lines come from different studies, so protocols differ. “And” joins repeats or separate records; there may be more than shown. Numbers after ± are the reported error.
APP amyloid-beta peptide: Amyloid-beta precursor protein, amyloid-beta peptide (APP, Homo sapiens, UniProt P05067)
ESR1: Estrogen receptor (ESR1, Homo sapiens, UniProt P03372)
Grm2: Metabotropic glutamate receptor 2 (Grm2, Rattus norvegicus, UniProt P31421)

Amino acid sequences for entries named in this document (tags omitted). A change or cut given only in a name is not applied to a line headed by its entry. Residues count along the entry.
UniProt P05067, whole entry, looked up: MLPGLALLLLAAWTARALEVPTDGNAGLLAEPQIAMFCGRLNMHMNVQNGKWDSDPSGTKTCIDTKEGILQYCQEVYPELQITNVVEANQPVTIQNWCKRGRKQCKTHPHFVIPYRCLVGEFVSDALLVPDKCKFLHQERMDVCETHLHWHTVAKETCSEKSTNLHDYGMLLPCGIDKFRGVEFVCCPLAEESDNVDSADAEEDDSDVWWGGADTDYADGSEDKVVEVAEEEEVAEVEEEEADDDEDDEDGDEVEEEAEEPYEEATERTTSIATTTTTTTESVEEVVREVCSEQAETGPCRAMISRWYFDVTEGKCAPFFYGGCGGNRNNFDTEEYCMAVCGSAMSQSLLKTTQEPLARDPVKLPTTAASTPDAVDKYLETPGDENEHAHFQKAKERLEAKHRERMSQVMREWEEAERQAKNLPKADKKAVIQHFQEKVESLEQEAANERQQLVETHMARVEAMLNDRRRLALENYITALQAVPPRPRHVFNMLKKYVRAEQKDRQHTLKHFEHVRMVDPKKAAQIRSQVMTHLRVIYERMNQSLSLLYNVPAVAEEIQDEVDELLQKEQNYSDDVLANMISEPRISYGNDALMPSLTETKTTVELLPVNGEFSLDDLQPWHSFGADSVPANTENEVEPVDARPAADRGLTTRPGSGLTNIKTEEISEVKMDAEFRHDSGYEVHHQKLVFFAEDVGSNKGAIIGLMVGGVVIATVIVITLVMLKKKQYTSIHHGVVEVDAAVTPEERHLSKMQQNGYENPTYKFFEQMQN
UniProt P03372, whole entry: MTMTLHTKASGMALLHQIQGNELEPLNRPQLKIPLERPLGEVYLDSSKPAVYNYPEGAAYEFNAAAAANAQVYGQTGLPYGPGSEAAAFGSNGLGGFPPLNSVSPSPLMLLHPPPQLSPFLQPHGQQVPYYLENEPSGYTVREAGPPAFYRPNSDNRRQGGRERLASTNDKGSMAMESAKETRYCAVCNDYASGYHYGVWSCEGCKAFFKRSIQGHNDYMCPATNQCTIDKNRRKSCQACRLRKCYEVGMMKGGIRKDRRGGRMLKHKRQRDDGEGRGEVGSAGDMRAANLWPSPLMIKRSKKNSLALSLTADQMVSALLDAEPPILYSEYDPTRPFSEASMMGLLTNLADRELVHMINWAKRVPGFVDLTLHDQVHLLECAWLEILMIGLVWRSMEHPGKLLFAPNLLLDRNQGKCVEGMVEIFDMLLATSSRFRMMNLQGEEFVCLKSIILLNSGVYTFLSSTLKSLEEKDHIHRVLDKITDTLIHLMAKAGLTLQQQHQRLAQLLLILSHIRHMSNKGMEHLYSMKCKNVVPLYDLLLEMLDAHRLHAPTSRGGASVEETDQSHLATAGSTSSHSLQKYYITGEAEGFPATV
UniProt P23219, 24-599 limits assumed: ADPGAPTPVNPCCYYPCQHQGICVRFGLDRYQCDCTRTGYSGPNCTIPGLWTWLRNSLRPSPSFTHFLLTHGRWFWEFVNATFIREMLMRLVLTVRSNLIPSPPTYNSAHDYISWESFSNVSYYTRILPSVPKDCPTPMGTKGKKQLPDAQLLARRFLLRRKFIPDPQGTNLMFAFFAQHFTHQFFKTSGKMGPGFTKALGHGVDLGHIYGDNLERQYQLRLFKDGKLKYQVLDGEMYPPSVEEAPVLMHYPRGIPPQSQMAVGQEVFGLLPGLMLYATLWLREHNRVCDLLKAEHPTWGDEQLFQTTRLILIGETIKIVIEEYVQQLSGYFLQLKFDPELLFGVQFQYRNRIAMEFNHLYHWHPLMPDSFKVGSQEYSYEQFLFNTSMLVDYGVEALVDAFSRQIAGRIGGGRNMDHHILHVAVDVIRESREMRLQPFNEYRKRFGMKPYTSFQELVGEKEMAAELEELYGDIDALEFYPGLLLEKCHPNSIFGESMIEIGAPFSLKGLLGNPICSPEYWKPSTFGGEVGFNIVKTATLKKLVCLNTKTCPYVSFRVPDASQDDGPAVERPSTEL
UniProt Q9BV23, whole entry: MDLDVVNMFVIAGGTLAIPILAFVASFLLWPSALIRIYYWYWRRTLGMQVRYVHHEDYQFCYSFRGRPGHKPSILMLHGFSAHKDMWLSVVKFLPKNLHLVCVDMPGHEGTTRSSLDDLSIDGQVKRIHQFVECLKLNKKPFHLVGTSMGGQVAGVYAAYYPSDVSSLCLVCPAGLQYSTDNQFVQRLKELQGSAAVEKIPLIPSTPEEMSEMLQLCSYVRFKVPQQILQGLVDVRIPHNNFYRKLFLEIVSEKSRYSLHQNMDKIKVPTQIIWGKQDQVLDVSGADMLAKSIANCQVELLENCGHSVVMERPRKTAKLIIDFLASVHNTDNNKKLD
UniProt Q04609, whole entry: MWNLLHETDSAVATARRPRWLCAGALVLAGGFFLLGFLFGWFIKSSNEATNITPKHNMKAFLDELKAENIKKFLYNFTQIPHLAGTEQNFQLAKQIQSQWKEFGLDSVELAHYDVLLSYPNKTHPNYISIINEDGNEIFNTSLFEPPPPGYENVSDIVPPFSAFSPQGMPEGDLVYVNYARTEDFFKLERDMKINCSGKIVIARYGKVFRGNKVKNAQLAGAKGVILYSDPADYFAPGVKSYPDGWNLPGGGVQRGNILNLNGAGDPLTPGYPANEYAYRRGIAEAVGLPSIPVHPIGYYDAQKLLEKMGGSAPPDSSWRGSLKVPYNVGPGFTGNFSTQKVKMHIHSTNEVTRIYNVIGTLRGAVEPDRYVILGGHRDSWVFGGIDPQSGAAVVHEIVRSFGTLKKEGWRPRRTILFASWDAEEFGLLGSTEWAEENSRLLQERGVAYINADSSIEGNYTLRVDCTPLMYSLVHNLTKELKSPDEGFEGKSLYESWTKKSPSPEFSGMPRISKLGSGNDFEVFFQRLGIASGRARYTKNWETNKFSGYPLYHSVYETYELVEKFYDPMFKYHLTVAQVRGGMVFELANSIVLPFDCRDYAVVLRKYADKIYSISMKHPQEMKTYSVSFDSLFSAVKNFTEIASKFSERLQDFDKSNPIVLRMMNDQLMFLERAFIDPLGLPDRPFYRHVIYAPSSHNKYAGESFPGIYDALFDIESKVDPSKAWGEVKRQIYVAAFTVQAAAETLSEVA
UniProt Q61009, whole entry: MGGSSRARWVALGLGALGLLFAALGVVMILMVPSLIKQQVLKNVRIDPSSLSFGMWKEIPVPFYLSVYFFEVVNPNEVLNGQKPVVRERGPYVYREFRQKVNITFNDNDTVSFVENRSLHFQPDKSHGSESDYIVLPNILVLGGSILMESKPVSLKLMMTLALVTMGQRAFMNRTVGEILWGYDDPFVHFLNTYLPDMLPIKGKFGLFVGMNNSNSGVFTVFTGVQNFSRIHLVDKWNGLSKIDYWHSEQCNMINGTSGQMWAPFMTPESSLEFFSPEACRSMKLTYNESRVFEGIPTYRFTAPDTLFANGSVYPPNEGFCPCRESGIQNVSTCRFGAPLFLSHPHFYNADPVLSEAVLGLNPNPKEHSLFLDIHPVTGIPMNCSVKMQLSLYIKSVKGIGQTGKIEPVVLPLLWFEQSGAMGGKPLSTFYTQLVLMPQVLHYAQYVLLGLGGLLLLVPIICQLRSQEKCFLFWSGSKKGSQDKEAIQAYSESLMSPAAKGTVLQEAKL
UniProt Q8TDS5, whole entry: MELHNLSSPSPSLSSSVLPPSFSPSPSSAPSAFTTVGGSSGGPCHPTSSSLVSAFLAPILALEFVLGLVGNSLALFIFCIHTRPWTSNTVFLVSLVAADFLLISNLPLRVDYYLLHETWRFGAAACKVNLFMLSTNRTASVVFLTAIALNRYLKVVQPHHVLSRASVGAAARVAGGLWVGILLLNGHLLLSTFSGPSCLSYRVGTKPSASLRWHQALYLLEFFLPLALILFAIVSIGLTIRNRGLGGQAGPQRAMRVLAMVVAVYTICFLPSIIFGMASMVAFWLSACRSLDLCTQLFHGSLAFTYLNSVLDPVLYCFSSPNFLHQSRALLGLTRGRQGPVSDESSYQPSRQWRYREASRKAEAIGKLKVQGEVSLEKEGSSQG
UniProt Q9Y251, whole entry, looked up: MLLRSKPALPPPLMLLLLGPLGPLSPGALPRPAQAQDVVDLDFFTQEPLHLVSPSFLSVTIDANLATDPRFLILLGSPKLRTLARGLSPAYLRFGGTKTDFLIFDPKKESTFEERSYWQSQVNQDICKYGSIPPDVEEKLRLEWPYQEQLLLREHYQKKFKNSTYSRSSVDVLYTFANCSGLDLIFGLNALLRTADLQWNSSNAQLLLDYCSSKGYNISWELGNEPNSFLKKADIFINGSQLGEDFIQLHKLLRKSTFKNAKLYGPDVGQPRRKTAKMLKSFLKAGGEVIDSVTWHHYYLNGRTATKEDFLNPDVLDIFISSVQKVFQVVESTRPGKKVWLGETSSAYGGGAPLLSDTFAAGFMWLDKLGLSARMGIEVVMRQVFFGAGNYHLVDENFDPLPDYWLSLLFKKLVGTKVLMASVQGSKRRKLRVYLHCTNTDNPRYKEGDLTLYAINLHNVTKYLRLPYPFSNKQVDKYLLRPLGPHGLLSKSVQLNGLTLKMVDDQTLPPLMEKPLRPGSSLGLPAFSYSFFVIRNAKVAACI
UniProt P07949, whole entry, looked up, stated change not applied: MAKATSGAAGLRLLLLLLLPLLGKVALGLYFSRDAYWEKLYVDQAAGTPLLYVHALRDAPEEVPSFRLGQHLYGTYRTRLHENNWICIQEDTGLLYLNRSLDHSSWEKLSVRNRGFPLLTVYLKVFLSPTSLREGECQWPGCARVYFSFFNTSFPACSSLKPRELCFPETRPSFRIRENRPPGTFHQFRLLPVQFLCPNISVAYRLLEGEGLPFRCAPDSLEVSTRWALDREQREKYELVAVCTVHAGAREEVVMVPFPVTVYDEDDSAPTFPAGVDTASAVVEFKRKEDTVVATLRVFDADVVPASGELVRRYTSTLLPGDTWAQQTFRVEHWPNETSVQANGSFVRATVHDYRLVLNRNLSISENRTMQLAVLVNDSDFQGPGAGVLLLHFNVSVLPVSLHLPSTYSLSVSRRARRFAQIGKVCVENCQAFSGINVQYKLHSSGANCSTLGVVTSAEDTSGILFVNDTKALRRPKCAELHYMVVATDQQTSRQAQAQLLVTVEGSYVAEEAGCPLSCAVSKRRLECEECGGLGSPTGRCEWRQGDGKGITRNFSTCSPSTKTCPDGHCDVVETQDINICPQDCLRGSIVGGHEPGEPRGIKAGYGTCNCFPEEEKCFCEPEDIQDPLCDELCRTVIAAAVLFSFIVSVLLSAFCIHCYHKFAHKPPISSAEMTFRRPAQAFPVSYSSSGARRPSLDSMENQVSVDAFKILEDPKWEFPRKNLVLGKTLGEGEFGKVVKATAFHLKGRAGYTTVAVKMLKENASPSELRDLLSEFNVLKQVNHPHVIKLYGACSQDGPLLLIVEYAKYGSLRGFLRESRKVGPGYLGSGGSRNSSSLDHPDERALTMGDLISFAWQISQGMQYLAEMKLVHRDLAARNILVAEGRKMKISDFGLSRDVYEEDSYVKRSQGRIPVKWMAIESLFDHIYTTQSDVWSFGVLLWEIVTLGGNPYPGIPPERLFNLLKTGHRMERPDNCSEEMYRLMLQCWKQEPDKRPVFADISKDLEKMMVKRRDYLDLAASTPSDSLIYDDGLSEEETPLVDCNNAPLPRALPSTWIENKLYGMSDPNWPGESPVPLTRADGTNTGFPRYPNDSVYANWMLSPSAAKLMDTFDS
UniProt P33176, whole entry, looked up: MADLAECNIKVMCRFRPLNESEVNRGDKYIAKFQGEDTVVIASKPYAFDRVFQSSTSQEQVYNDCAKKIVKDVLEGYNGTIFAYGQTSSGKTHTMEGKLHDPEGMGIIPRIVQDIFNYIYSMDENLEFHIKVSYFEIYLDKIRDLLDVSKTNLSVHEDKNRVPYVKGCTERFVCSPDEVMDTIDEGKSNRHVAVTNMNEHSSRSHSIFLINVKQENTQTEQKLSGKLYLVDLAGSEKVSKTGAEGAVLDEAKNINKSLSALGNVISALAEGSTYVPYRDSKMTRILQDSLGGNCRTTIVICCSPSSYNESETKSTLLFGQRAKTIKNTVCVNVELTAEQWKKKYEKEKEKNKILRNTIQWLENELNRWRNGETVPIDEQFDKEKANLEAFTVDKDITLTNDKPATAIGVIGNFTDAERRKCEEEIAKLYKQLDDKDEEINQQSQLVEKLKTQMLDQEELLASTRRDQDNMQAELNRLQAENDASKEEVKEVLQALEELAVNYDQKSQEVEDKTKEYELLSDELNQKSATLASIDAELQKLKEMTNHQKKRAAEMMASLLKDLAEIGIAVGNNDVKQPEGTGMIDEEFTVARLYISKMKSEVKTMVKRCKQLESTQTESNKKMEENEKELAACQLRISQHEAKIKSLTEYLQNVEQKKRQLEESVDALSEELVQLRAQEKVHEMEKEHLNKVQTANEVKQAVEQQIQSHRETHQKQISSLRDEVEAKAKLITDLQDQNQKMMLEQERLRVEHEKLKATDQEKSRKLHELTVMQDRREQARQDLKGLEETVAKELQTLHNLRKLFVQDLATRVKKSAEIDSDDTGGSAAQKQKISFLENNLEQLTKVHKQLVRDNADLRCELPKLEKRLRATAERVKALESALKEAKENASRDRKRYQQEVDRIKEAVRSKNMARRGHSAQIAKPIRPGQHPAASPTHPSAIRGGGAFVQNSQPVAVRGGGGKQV

| Compound | target | assay | system | conditions | scale | IC50 |
| --- | --- | --- | --- | --- | --- | --- |
| COc1ccccc1C(=O)Nc1ccc(-c2nc3ccccc3s2)cc1 | Tyrosine-protein kinase SYK, with FCER1G (SYK, Homo sapiens, UniProt P43405) | protein binding, inhibitor, TR-FRET | – | – | – | > 100000 nM |
| O=[N+]([O-])c1cccc(/C=C/c2c[nH]c3ccc(F)cc23)c1 | APP amyloid-beta peptide | Aβ42 oligomerisation, ELISA | – | – | – | 7000 nM |
| CC(C)NC(=O)CSc1nc2ccc(NC(=O)CSc3cccc(C(F)(F)F)c3)cc2s1 | ESR1 | reporter gene, antagonist | HEC-1 transfected ERα luciferase reporter | – | – | > 50000 nM |
| COc1nc(-c2ccccc2)n(-c2ccc(C#N)cc2)n1 | Prostaglandin G/H synthase 1 (PTGS1, Homo sapiens, UniProt P23219) | thromboxane B2 production, inhibitor, enzyme immunoassay | human whole blood | – | – | 1 ± 1.4 nM |
| CC(C)c1ccc(SCC(=O)Nc2ccc3nc(SCC(=O)NC4CC4)sc3c2)cc1 | ESR1 | reporter gene, antagonist | HEC-1 transfected ERα luciferase reporter | – | – | 20000 to 50000 nM |
| O=C(O)c1cc(C(=O)N[C@@H](Cc2ccc(O)cc2)C(=O)O)cc([C@H]2CCN[C@@H]2C(=O)O)c1 | Glutamate receptor ionotropic, NMDA 2B, with GluN1 (Grin2b, Rattus norvegicus, UniProt Q00960) | ion current, antagonist, two-electrode voltage clamp | Xenopus oocytes | GluN1/GluN2B, added: glycine 100 µM and glutamate 1 µM | – | 1730 ± 50 nM |
| CCCCNC(=O)NC1CC=C(c2cc3c(Nc4cc5ncsc5cc4F)ncnc3s2)CC1 (centres unmarked) | Receptor-interacting serine/threonine-protein kinase 2 (RIPK2, Homo sapiens, UniProt O43353) | kinase activity, inhibitor | – | – | – | 8 nM |
| O=C(N/N=C/c1ccc(Sc2ccccn2)s1)c1cccc(Oc2ccccc2)c1 | Protein phosphatase EYA2 (Homo sapiens, UniProt O00167) | tyrosine phosphatase activity, inhibitor | – | – | – | 150 nM |
| NCCC(=O)N[C@@H](Cc1c[nH]c2ccc(O)cc12)C(=O)N[C@@H](Cc1ccc(Cl)cc1)C(=O)N[C@@H](Cc1ccncc1)C(=O)N[C@@H](Cc1c[nH]c2ccccc12)C(N)=O | Ephrin type-A receptor 4 (EPHA4, Homo sapiens, UniProt P54764) | binding, fluorescence polarization | – | added: FITC-KYL peptide 5 µM | – | 21000 ± 4400 nM |
| O=C(OC(C(F)(F)F)C(F)(F)F)N1CCc2cc(Br)ccc2C1 | Monoacylglycerol lipase ABHD6 (ABHD6, Homo sapiens, UniProt Q9BV23) | inhibitor, fluorescence | – | – | – | 72.7 ± 1.5 nM |
| C[C@H](NC(=O)c1cc(C(=O)O)cc([C@H]2CCN[C@@H]2C(=O)O)c1)C(=O)O | Glutamate receptor ionotropic, NMDA 2D, with GluN1 (Rattus norvegicus, UniProt Q62645) | ion current, antagonist, two-electrode voltage clamp | Xenopus oocytes | GluN1/GluN2D, added: glycine 100 µM and glutamate 1 µM | – | 33800 ± 4470 nM |
| O=C(NCc1ccc(-c2cnco2)cc1)[C@@H]1C[C@@H](O)CN1C(=O)c1cccc(Br)c1 | von Hippel-Lindau disease tumor suppressor, with elongin B, C (VHL, Homo sapiens, UniProt P40337) | binding, fluorescence polarization | – | 10% DMSO, added: FAM-HIF1α peptide tracer | – | 39500 ± 3700 nM |
| O=C(O)CCC(NS(=O)(=O)CCl)C(=O)O (centres unmarked) | Glutamate carboxypeptidase 2 (FOLH1, Homo sapiens, UniProt Q04609) | enzyme activity, inhibitor, HPLC | – | 15 min, pH 7.4, 37 °C, 1% Triton X-100, added: 10 mM glutamate dipeptide substrate | – | 17200 nM |
| O=C(Cn1c(-c2nccs2)nc2ccccc21)Nc1ccc(Cl)cc1 | Inosine-5'-monophosphate dehydrogenase 2 (IMPDH2, Homo sapiens, UniProt P12268) | enzyme activity, inhibitor | – | – | lower bound | ≥ 40000 nM |
| CCC(=O)Nc1ccc(-c2csc(NC(=O)c3ccc(F)c(OC)c3)n2)cn1 | Scavenger receptor class B member 1 (Mus musculus, UniProt Q61009) | DiI-HDL uptake, inhibitor | mouse cells | added: DiI-HDL | – | 200 nM |
| CCCCC[C@H](O)c1c(C(=O)C[C@@H](C)CC(=O)O)c2cc(Cl)ccc2n1C | Oxoeicosanoid receptor 1 (OXER1, Homo sapiens, UniProt Q8TDS5) | calcium mobilization, antagonist | human neutrophils | added: 5-oxo-ETE 10 nM | – | > 10000 nM |
| CC(=O)Nc1cc(Nc2cc(NC3CC3)n3ncc(C#N)c3n2)ccc1N(C)Cc1ccccc1 | Casein kinase II subunit alpha (CSNK2A1, Homo sapiens, UniProt P68400) | inhibitor | – | – | – | 91 nM |
| O=C(CSc1ccc2ccccc2c1)Nc1ccc2nc(SCC(=O)NC3CC3)sc2c1 | ESR1 | reporter gene, antagonist | HEC-1 transfected ERα luciferase reporter | – | – | 8700 nM |
| CCN1CCN(c2ccc(Nc3ncc4c(n3)N(C)C(=O)N(c3cc(NC(=O)c5cccc(C(F)(F)F)c5)ccc3C)C4)cn2)CC1 | Fibroblast growth factor receptor 4 (FGFR4, Homo sapiens, UniProt P22455) | enzyme activity, inhibitor, radiometric kinase | – | – | – | < 1 nM |
| CS(=O)(=O)Nc1ccc(OC[C@@H](O)CNCCc2ccc(Cl)c(Cl)c2)cc1 | Glutamate NMDA receptor; Grin1/Grin2b (Grin1/Grin2b, Rattus norvegicus, UniProt P35439+Q00960) | – | – | pH 7.6 | – | 45 nM |
| O=C([C@H]1O[C@H](O[C@H]2[C@H](O[C@@H]3O[C@H](C(=O)N4CCCC4)[C@@H](O[C@H]4O[C@@H](CNS(=O)(=O)O)[C@@H](OCc5ccc6ccccc6c5)[C@H](OCc5ccc6ccccc6c5)[C@H]4NS(=O)(=O)O)[C@H]3OCc3ccc4ccccc4c3)[C@@H](OCc3ccc4ccccc4c3)[C@H](NS(=O)(=O)O)C[C@@H]2NS(=O)(=O)O)[C@H](NS(=O)(=O)O)[C@@H](OCc2ccc3ccccc3c2)[C@@H]1OCc1ccc2ccccc2c1)N1CCCC1 | Heparanase (HPSE, Homo sapiens, UniProt Q9Y251) | enzyme activity, inhibitor, TR-FRET | – | – | – | < 25 nM |
| NC(=O)c1ccc(C(=O)NOCc2ccccc2F)cc1 | NAD-dependent protein deacylase sirtuin-6 (SIRT6, Homo sapiens, UniProt Q8N6T7) | deacetylase activity, inhibitor, fluorogenic | – | added: RHKK-ac-AMC | – | 14800 ± 1330 nM |

| Compound | target | assay | system | conditions | scale | IC50 |
| --- | --- | --- | --- | --- | --- | --- |
| CN1CCN(Cc2ccc(NC(=O)c3cncc(C#Cc4cncc5ncccc45)c3)cc2C(F)(F)F)CC1 | Kinesin-1 heavy chain/ Tyrosine-protein kinase receptor RET (RET/KIF5B, Homo sapiens, UniProt P07949+P33176, G810S) | cell viability, inhibitor, CellTiter-Glo | Ba/F3 KIF5B-RET G810S | – | – | 10.6 ± 0.35 nM |
| CCCCCCCCCCCCNC(=S)NCCCC[C@H](NC(=O)c1ccccc1)C(=O)N[C@H](C)C(=O)N[C@@H](CCCNC(=N)N)C(N)=O | NAD-dependent protein deacetylase sirtuin-2 (SIRT2, Homo sapiens, UniProt Q8IXJ6) | demyristoylation, inhibitor | – | NAD+ 500 µM, added: myristoylated peptide 50 µM | – | 7500 ± 900 nM |
| Cc1nc(N)sc1-c1csc(N(C)c2ccc(O)cc2)n1 | Protein-lysine 6-oxidase (Homo sapiens, UniProt P28300) | LOX activity, inhibitor | MDA-MB-231 | – | – | 3500 nM |
| N#Cc1ccccc1N1CCN(C(=O)CCCCCn2c(=S)[nH]c3ccccc3c2=O)CC1 | ESR1 | reporter gene, antagonist | HEC-1 cells transfected with ERα | added: estradiol 1 nM | – | 3500 nM |
| Cc1cc(-c2ccc(C3(c4ccc(Cl)cc4)CCNCC3)cc2)ccn1 | RAC-alpha serine/threonine-protein kinase (AKT1, Homo sapiens, UniProt P31749) | kinase activity, inhibitor, radiometric HotSpot | – | added: ATP 10 µM | – | 724 nM |
| COc1cc(Cl)ccc1NC(=O)C(C(F)(F)F)C(F)(F)F | Rhomboid protease AarA (Providencia stuartii, UniProt P46116) | inhibitor, fluorogenic peptide substrate | – | – | – | 3500 nM |
| CC(=O)Nc1ccc(/C=C/c2c[nH]c3ccc(F)cc23)cc1 | APP amyloid-beta peptide | Aβ42 oligomerisation, ELISA | – | – | – | 8500 nM |
| Cc1ccc(OCc2ccc3c(c2)c(=O)c(C(N)=O)cn3-c2ccc(F)cc2)cn1 | Grm2 | calcium mobilization, negative allosteric modulator | – | – | – | 247 nM |
| CC[C@H](N)c1nc2cc(-c3ccnc(F)c3)sc2c(=O)[nH]1 | Cell division cycle 7-related protein kinase (CDC7, Homo sapiens, UniProt O00311) | enzyme activity, inhibitor | – | – | – | 126 ± 2.51 nM |
| COc1cc(C(=O)N2CCC(N3CCN(C)CC3)CC2)ccc1Nc1ncc2c(n1)N(C1CCC1)c1ccccc1C(=O)N2C | Mitogen-activated protein kinase 7 (MAPK7, Homo sapiens, UniProt Q13164) | kinase activity | – | – | – | 75 ± 9 nM |
| CNCCCSc1c2cc(OC)ccc2nc2ccc(OC)cc12 | Dual specificity tyrosine-phosphorylation-regulated kinase 2 (DYRK2, Homo sapiens, UniProt Q92630) | inhibitor | – | added: Woodtide peptide | – | 120 nM |
| CN(c1ccncc1)c1ccc2c(c1)c(=O)c(C(N)=O)cn2-c1ccc(F)cc1 | Grm2 | calcium mobilization, negative allosteric modulator | – | – | – | 874 nM |
| CN1CC[C@H](c2c(O)cc(O)c3c(=O)cc(-c4ccccc4F)oc23)[C@H](O)C1 | Protein kinase C beta type, isoform beta-II (PRKCB, Homo sapiens, UniProt P05771) | – | – | ATP at Km | – | > 10000 nM |
| Cc1c(Cc2cccc(OC(C)(C)C(=O)O)c2)c2ccc(C(=O)N[C@H](c3cccc(C(C)(C)C)c3)C(F)(F)F)cc2n1CC(C)C | Peroxisome proliferator-activated receptor gamma (PPARG, Homo sapiens, UniProt P37231) | TR-FRET competitive binding | – | – | – | 2.93 ± 0.99 nM |
| Cc1cnccc1-c1ccc(C2(c3ccc(Cl)cc3)CCNCC2)cc1 | Serine/threonine-protein kinase LATS2 (LATS2, Homo sapiens, UniProt Q9NRM7) | kinase activity, inhibitor, radiometric HotSpot | – | added: ATP 10 µM | – | 61 nM |
| COC(=O)Nc1ccc(-c2nc3ccc(NC(=O)OC)cc3s2)cc1 | Moesin, with CD44 (Homo sapiens, UniProt P26038) | MSN-CD44 interaction, inhibitor, TR-FRET | – | added: CD44 | – | 2200 nM |
| O=C(CCc1ccccc1)N1CCN(S(=O)(=O)c2ccc3[nH]c(=O)oc3c2)CC1 | Nucleotide triphosphate diphosphatase NUDT15 (NUDT15, Homo sapiens, UniProt Q9NV35) | enzyme activity, inhibitor, malachite green | – | added: dGTP | – | 6100 nM |
| C[C@@H]1CN(c2c(C#N)c(=O)n(C)c3ccccc23)[C@@H](C)CN1Cc1cn(S(=O)(=O)c2ccccc2)nn1 | Diacylglycerol kinase alpha (DGKA, Homo sapiens, UniProt P23743) | enzyme activity, inhibitor, ADP-Glo | – | added: DAG micelles | – | 1890 nM |
| COC(=O)Cc1ccc(C(NS(=O)(=O)c2cccs2)C(=O)Nc2ccc(Cl)cc2)cc1 (centres unmarked) | Uracil nucleotide/cysteinyl leukotriene receptor, long isoform (GPR17, Homo sapiens, UniProt Q13304) | calcium mobilization, antagonist | 1321-N1 | – | – | 3580 ± 240 nM |
| O=C(CCl)N1CCN(c2cc(N3CCCC3)nc(N3CCCC3)n2)CC1 | Caspase-1 (CASP1, Homo sapiens, UniProt P29466) | enzyme activity, inhibitor | – | 30 min preincubation, added: Ac-WEHD-AMC 10 µM | – | 144 nM and 134 nM |
| COc1cc2nccc(Oc3ccc(NC(=S)NC4CCC4)c(Cl)c3)c2cc1C(N)=O | Fibroblast growth factor receptor 1 (FGFR1, Homo sapiens, UniProt P11362) | – | – | – | – | 1100 nM |
| COC(=O)/C(=C/c1c[nH]c2ccc(C#N)cc12)c1ccc(NS(C)(=O)=O)cc1 | APP amyloid-beta peptide | Aβ42 oligomerisation, ELISA | – | – | – | > 20000 nM |

A few entries again:
| Compound | target | assay | system | conditions | scale | IC50 |
| --- | --- | --- | --- | --- | --- | --- |
| O=C(CCc1ccccc1)N1CCN(S(=O)(=O)c2ccc3[nH]c(=O)oc3c2)CC1 | Nucleotide triphosphate diphosphatase NUDT15 (NUDT15, Homo sapiens, UniProt Q9NV35) | enzyme activity, inhibitor, malachite green | – | added: dGTP | – | 6100 nM |
| C[C@@H]1CN(c2c(C#N)c(=O)n(C)c3ccccc23)[C@@H](C)CN1Cc1cn(S(=O)(=O)c2ccccc2)nn1 | Diacylglycerol kinase alpha (DGKA, Homo sapiens, UniProt P23743) | enzyme activity, inhibitor, ADP-Glo | – | added: DAG micelles | – | 1890 nM |
| COC(=O)Cc1ccc(C(NS(=O)(=O)c2cccs2)C(=O)Nc2ccc(Cl)cc2)cc1 (centres unmarked) | Uracil nucleotide/cysteinyl leukotriene receptor, long isoform (GPR17, Homo sapiens, UniProt Q13304) | calcium mobilization, antagonist | 1321-N1 | – | – | 3580 ± 240 nM |
| O=C(CCl)N1CCN(c2cc(N3CCCC3)nc(N3CCCC3)n2)CC1 | Caspase-1 (CASP1, Homo sapiens, UniProt P29466) | enzyme activity, inhibitor | – | 30 min preincubation, added: Ac-WEHD-AMC 10 µM | – | 144 nM and 134 nM |
| COc1cc2nccc(Oc3ccc(NC(=S)NC4CCC4)c(Cl)c3)c2cc1C(N)=O | Fibroblast growth factor receptor 1 (FGFR1, Homo sapiens, UniProt P11362) | – | – | – | – | 1100 nM |
| COC(=O)/C(=C/c1c[nH]c2ccc(C#N)cc12)c1ccc(NS(C)(=O)=O)cc1 | APP amyloid-beta peptide | Aβ42 oligomerisation, ELISA | – | – | – | > 20000 nM |
